Assay results gathered from unrelated publications.
Protocols differ between the studies behind these lines.
Target: Platelet-derived growth factor receptor alpha (PDGFRA, Homo sapiens, UniProt P16234)

Cc1cccc(O[C@H]2CCC[C@@H](C(C)CNCc3ccncc3)C2)c1 (relative stereo)  inhibition (enzyme activity, inhibitor; 10 µM): -3%
CCN1CCN(Cc2ccc(NC(=O)c3ccc(C)c(NC(=O)c4cncc(-c5cccs5)c4)c3)cc2C(F)(F)F)CC1  remaining binding (binding, competition with immobilised ligand; 1 µM): 0.9%
CC(=O)N1c2ccc(-c3ccc(CNC(=O)c4cn5cc(-c6cnc(N)nc6)nc(N6CCOCC6)c5n4)cc3)cc2CC[C@@H]1C  remaining binding (KINOMEscan; 10 µM): 95%
COc1cc(OC)c(F)c(/C=C/c2cnc3ccn(S(=O)(=O)c4cn(CCF)cn4)c3n2)c1F  inhibition (100 nM): 0%
C=CC(=O)N1Cc2nc(-c3cc(-c4cc(Cl)cnc4Cl)c(F)cc3F)n(-c3ccncn3)c2C1  inhibition (cell-free assay, inhibitor; 1 µM): -1.8%
O=c1c(-c2ccc(Cl)c(CN3CCOCC3)c2)coc2cc(O)ccc12  remaining activity (enzyme activity, inhibitor; 1 µM): 103%
CNS(=O)(=O)Nc1nccc(Cc2c(C)c3ccc(Oc4ncccc4F)cc3oc2=O)c1F  remaining binding (cell-free assay, competition with immobilised ligand; 10 µM): 100%
COc1cc(Nc2nc(C)cc(-c3cnn4nc(OC)ccc34)n2)cc(C(F)(F)F)c1  remaining activity (inhibitor; 1 µM; reference: control): 69%
Cc1nc2c(F)cc(-c3nc(Nc4ccc(CNC(=O)CCCCCCC(=O)NO)cc4)ncc3F)cc2n1C(C)C  inhibition (enzyme activity, inhibitor; 1 µM): 12%
CNC1C[S+]2CC[S+]3CC[S+](C1)[Ru-4]321([N]=C=S)[n]2c3ccc(OC)cc3c3c4c(c5cc(F)c[n+]1c5c32)C(=O)NC4=O (stereo not drawn)  remaining binding (KinomeScan; 0.1 µM; reference: untreated): 57%
CN1CCN(Cc2ccc(NC(=O)c3cccc(C#Cc4cnc(N)c5ncccc45)c3)cc2C(F)(F)F)CC1  remaining binding (cell-free assay, competition with immobilised ligand; 50 nM): 3%
COc1ccc(O)cc1-c1c[nH]c2ncc(-c3cncc(C(=O)N(C)C)c3)cc12  inhibition (binding, competition with immobilised ligand; 0.2 µM): 60.7%
NC(=O)[C@@H](O)C[C@H]1CCc2sc3ncnc(O[C@H]4CC[C@H](N5CCOCC5)CC4)c3c21  inhibition (enzyme activity, inhibitor; 10 µM): 19%
COc1c(Cl)cccc1Nc1c(-c2ccncc2C#C[C@@]2(C)CCCN2C(=O)/C=C/CN(C)C)[nH]c2c1C(=O)NCC2  remaining binding (cell-free assay, competition with immobilised ligand; 3 µM): 97%
C[C@H]1CN(C(=O)c2cn(-c3ccnc(N)n3)c3cc(C#CC4(O)CCCCC4)ccc23)CCN1  inhibition (enzyme activity, inhibitor, FRET; 1 µM): -2%
C=CC(=O)N1CCCC(n2c(=O)c3ncccc3n(Cc3ccc(Oc4ccccc4)cc3)c2=O)C1 (stereo not drawn)  remaining binding (cell-free assay, competition with immobilised ligand; 1 µM): 50%
COc1ccc(NC(=O)Nc2ccc3c(c2)C(=O)N(C(C)CO)CC(C)C(CN(C)Cc2ccc4c(c2)OCO4)O3)cc1 (stereo not drawn)  remaining binding (binding, competition with immobilised ligand; 10 µM): 90%
CNC(=O)c1cnc(Nc2ccncc2)nc1-c1ccc(C)cc1  remaining binding (cell-free assay, competition with immobilised ligand; 10 µM): 26%
COc1ccc(C(=O)/C=C/c2ccccc2-c2c[nH]c3ccc(C#N)cc23)c(O)c1  inhibition (enzyme activity, inhibitor; 20 µM): 0%
CN1CCN(c2ccc(Nc3ncc(Cl)c(Nc4ccccc4P(C)(C)=O)n3)cc2Br)CC1  inhibition (enzyme activity, inhibitor; 0.1 µM): 63.4%
O=C=[N][Ru-4]123([n]4c5ccc(O)cc5c5c6c(c7cc(F)c[n+]1c7c54)C(=O)NC6=O)[S+]1CC[S+]2CC[S+]3CC1 (stereo not drawn)  remaining activity (enzyme activity; 100 nM, human enzyme, added: 10 µM ATP; reference: untreated): 127%
CCN1CCN(Cc2ccc(C(=O)Nc3ccc(C)c(NCc4cnc5[nH]ccc5c4OC)c3)cc2C(F)(F)F)CC1  remaining binding (binding, competition with immobilised ligand; 1 µM): 9%
C=CC(=O)Nc1cccc(-c2cnc3[nH]cc(C(=O)NC(C)(C)C)c3n2)c1  inhibition (enzyme activity, inhibitor; 0.1 µM): 22%
CNC(=O)C1CCN(c2cc(C)c(F)cc2NC(=O)c2ccc(-c3cc(O)ccc3C)c(C)c2)CC1  remaining binding (binding, competition with immobilised ligand; 1 µM): 57%

Excerpt of the above:
Cc1nc2c(F)cc(-c3nc(Nc4ccc(CNC(=O)CCCCCCC(=O)NO)cc4)ncc3F)cc2n1C(C)C  inhibition (enzyme activity, inhibitor; 1 µM): 12%
COc1cc(Nc2nc(C)cc(-c3cnn4nc(OC)ccc34)n2)cc(C(F)(F)F)c1  remaining activity (inhibitor; 1 µM; reference: control): 69%
COc1ccc(O)cc1-c1c[nH]c2ncc(-c3cncc(C(=O)N(C)C)c3)cc12  inhibition (binding, competition with immobilised ligand; 0.2 µM): 60.7%
Cc1cccc(O[C@H]2CCC[C@@H](C(C)CNCc3ccncc3)C2)c1 (relative stereo)  inhibition (enzyme activity, inhibitor; 10 µM): -3%
